# Measured values collected from several papers.
# Chains of the proteins cited; added tags and fusions are not shown. Residues count along the entry.
# UniProt Q9NXA8, whole entry, looked up: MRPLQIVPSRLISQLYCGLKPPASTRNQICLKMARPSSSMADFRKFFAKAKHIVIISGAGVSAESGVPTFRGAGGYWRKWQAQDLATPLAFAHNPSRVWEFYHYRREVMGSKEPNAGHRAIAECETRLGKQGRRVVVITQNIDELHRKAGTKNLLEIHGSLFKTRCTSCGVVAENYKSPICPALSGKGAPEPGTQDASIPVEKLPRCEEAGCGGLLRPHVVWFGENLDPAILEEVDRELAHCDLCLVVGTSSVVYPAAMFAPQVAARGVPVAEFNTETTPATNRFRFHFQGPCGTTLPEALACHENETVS
# UniProt O00167, whole entry: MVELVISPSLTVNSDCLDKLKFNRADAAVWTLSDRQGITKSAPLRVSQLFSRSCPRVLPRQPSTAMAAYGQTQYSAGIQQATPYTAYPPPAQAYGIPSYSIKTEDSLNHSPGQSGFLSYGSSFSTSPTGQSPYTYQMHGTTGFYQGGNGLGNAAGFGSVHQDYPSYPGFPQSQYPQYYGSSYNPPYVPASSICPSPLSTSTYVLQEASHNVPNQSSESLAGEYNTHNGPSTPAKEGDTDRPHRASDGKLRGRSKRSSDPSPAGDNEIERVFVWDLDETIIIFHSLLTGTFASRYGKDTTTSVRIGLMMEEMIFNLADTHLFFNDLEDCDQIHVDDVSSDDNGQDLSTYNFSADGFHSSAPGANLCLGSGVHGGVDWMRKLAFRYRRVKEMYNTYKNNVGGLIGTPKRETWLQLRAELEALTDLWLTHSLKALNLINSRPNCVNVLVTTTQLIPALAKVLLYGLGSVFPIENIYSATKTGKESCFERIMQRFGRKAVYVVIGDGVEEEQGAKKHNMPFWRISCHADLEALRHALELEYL
# UniProt O96017, whole entry: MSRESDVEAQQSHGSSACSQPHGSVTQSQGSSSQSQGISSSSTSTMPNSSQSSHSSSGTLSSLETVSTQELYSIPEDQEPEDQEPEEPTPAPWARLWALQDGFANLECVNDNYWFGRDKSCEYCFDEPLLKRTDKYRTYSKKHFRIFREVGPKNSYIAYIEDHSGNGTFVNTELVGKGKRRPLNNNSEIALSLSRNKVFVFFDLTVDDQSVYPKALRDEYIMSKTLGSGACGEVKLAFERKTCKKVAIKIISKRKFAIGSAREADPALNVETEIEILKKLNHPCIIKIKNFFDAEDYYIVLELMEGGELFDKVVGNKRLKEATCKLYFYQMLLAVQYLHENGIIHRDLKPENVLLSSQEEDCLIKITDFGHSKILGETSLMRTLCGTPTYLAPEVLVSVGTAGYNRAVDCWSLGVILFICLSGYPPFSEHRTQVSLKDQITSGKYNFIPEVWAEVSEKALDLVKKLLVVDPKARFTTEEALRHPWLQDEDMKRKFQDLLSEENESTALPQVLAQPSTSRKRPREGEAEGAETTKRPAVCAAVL
# UniProt Q13304, whole entry: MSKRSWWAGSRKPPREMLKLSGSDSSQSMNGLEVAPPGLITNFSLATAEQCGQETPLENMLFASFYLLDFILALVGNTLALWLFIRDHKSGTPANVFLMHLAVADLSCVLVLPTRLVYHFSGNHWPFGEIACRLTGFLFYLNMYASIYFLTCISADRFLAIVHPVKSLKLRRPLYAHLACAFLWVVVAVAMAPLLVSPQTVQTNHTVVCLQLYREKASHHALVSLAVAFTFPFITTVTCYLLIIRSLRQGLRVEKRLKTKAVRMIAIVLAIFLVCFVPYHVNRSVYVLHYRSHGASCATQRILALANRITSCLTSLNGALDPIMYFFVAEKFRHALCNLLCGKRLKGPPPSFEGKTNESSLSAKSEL
# UniProt P46934, 1-900 isoform 4: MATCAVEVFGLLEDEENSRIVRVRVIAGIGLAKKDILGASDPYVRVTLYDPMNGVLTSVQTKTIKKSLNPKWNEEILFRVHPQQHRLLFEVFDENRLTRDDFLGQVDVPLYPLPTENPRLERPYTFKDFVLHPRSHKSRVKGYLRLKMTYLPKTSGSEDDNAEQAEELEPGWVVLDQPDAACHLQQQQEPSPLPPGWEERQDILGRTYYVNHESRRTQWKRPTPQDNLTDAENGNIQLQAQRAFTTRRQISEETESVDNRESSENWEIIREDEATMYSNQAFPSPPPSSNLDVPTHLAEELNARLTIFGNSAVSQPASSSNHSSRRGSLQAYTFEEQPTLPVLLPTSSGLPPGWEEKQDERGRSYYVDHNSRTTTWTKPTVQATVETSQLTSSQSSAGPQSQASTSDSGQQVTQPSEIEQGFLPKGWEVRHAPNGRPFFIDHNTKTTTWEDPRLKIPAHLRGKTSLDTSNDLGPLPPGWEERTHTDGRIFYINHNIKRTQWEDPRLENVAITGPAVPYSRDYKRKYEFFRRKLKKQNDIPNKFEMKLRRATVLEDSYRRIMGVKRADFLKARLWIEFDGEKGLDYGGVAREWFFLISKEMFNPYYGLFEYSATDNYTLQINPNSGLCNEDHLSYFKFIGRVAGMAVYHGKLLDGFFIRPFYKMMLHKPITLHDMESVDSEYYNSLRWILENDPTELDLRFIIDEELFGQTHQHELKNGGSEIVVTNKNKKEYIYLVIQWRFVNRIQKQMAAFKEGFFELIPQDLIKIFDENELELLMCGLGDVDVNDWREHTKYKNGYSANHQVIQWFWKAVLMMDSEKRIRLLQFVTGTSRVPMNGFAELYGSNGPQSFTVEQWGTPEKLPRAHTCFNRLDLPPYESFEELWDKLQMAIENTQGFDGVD
# UniProt P07237, whole entry, looked up: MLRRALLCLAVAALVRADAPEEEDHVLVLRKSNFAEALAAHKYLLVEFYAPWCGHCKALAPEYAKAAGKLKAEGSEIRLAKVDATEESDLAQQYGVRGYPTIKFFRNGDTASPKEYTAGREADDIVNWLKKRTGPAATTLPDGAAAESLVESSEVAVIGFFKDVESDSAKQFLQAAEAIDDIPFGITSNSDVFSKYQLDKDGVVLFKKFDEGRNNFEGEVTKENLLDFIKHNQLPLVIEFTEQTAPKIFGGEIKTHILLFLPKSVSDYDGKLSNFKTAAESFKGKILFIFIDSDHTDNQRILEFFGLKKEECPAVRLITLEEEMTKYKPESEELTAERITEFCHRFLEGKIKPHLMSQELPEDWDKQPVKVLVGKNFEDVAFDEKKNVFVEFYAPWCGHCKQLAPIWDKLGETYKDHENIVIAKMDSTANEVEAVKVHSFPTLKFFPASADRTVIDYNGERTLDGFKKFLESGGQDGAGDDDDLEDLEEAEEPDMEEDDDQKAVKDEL
# UniProt P03372, whole entry: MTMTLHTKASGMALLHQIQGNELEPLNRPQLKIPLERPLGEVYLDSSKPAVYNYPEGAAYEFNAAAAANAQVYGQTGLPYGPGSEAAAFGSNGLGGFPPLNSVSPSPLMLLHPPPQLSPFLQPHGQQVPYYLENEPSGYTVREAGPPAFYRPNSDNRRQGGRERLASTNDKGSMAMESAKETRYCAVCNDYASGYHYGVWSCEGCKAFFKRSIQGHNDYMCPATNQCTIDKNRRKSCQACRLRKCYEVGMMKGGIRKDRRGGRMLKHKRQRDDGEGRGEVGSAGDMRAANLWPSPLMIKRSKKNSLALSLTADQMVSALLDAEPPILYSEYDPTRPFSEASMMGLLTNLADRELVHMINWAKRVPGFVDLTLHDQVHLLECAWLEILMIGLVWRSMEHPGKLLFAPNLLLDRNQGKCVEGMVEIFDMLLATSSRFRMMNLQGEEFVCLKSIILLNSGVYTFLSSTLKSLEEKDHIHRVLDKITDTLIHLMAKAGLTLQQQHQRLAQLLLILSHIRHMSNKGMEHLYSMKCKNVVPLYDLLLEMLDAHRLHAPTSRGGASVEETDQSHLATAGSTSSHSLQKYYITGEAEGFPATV
# UniProt P05067, whole entry, looked up: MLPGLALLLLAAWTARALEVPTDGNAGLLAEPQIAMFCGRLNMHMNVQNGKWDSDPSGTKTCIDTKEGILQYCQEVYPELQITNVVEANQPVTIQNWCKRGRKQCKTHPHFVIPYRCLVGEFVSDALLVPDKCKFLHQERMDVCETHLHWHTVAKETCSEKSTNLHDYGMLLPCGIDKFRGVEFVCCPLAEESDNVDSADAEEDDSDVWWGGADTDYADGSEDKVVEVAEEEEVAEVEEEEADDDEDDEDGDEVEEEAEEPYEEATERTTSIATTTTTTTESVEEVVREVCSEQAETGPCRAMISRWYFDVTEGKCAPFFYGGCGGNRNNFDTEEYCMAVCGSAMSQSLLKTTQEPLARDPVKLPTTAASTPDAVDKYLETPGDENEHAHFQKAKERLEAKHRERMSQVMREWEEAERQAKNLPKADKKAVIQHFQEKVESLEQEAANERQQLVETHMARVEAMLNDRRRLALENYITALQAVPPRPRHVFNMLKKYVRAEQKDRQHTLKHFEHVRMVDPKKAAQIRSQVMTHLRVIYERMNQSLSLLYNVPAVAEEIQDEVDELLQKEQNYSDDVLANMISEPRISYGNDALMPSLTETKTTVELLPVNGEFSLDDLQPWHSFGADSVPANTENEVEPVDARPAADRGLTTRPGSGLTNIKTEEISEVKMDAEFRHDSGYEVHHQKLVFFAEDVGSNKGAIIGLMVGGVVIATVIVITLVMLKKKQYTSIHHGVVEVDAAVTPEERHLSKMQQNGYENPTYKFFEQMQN
# UniProt Q07440, whole entry P104K/C113S, looked up: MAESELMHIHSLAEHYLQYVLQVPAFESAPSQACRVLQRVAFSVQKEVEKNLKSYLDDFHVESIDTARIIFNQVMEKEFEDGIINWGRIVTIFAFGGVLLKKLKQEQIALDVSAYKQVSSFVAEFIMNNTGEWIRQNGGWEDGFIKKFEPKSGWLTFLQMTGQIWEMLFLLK
# UniProt P45985, whole entry: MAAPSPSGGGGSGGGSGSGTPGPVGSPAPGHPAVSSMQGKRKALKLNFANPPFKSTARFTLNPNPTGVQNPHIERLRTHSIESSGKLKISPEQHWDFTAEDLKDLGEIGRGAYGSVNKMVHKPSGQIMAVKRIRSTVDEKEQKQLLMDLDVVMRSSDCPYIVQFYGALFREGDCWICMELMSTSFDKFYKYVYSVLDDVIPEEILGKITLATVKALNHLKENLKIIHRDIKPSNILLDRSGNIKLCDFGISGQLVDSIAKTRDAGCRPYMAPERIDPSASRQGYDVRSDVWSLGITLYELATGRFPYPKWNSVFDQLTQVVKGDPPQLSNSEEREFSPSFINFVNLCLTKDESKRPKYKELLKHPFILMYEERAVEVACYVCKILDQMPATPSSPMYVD
# UniProt O15455, whole entry, looked up: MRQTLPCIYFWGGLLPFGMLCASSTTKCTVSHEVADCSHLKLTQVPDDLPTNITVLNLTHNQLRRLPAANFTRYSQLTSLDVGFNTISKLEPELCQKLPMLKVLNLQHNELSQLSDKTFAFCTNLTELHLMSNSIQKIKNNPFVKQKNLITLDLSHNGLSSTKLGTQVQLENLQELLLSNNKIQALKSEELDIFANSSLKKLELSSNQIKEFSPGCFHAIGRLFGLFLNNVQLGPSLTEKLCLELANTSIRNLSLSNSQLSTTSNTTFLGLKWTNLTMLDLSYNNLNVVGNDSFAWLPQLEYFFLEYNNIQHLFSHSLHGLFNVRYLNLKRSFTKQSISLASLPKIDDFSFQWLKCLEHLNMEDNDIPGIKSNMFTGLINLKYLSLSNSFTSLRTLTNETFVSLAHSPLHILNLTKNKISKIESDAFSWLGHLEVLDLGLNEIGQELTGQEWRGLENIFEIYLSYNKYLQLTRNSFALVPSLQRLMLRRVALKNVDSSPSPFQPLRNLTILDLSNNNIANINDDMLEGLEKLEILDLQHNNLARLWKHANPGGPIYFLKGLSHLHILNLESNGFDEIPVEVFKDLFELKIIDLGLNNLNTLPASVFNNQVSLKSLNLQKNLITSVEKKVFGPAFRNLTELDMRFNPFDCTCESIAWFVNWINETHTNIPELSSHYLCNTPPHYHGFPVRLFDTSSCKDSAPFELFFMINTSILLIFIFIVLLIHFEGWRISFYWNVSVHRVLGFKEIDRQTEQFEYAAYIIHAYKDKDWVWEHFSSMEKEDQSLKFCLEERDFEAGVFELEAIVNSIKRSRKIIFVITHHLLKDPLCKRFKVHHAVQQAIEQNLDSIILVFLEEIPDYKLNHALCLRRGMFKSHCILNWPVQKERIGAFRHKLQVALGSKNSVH
# UniProt P14902, whole entry: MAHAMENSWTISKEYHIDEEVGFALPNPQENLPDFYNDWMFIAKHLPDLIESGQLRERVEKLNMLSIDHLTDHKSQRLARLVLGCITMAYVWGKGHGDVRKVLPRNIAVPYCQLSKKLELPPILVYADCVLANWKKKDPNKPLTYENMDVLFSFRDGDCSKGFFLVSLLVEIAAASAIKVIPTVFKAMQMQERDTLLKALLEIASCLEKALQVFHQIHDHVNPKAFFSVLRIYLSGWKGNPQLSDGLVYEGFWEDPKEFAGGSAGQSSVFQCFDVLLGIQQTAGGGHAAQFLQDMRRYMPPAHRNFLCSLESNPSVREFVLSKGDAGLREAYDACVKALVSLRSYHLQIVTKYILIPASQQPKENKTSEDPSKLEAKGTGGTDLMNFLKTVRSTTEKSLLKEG
# Each line is one published result; not all experiments were run side by side. ± gives the spread as reported.
SMILES,target,test,system,conditions,IC50
O=C(CCC(=O)N[C@@H](CCCCNC(=S)NCCn1nn[nH]c1=O)C(=O)N[C@@H](Cc1c[nH]c2ccccc12)C(=O)NC1CCC1)NCCOCCOCCCCCCCl,"SIRT5 (Homo sapiens, UniProt Q9NXA8)","deacylase activity, inhibitor, end-point inhibition",,,2.3 ± 0.2 µM
O=C(N/N=C/c1ccc(Sc2ccccn2)s1)c1cccc(Cl)c1,"Protein phosphatase EYA2 (Homo sapiens, UniProt O00167)","tyrosine phosphatase activity, inhibitor",,,0.28 µM
NS(=O)(=O)c1ccc(Cc2c(-c3ccc(F)c(/C=C/C4CCCC4)c3)nn(-c3nc(C(=O)O)cs3)c2CC2CC2)cc1F,"LDHA (Homo sapiens, UniProt P00338)","enzyme activity, inhibitor",,,0.05 µM
COc1ccc(C(=O)Nc2ccc(-c3nc4ccccc4[nH]3)cc2)cc1,"Tyrosine-protein kinase SYK, with FCER1G (SYK, Homo sapiens, UniProt P43405)","protein binding, inhibitor, TR-FRET",,,14 µM
CC(=NNC(=N)N)c1ccc2[nH]c(C(=O)Nc3ccc4cc[nH]c4c3)cc2c1,"CHEK2 (Homo sapiens, UniProt O96017)","kinase activity, inhibitor, IMAP fluorescence polarization",,,0.0127 ± 0.0119 µM
Cc1ccccc1C(NS(=O)(=O)c1cccs1)C(=O)Nc1ccc(Cl)cc1 (stereo not shown),"Uracil nucleotide/cysteinyl leukotriene receptor, long isoform (GPR17, Homo sapiens, UniProt Q13304)","calcium mobilization, antagonist",1321-N1,,11.2 ± 0.67 µM
COc1ccc(C(CCc2ccc(O)cc2OC)c2cc(CCC(=O)c3ccc(O)cc3)c(OC)cc2O)cc1 (racemic),"ALOX5 (Homo sapiens, UniProt P09917)",enzyme activity,cell-free,with: arachidonic acid 20 µM,0.3 ± 0.09 µM
CCOC(=O)/C=C/CNCCCCN1c2ccccc2CCc2ccc(Cl)cc21,"E3 ubiquitin-protein ligase NEDD4 (Homo sapiens, UniProt P46934)","ubiquitination, inhibitor, Ub-TR-FRET",,"1 h preincubation, full-length protein",1.8 ± 0.182 µM
CN(Cc1ccncc1)c1ccc2c(c1)c(=O)c(C(N)=O)cn2-c1ccc(F)cc1,"Grm2 (Rattus norvegicus, UniProt P31421)","calcium mobilization, negative allosteric modulator",,,0.201 µM
Cc1cc(O)c(C(=O)/C=C/c2cc(C(=O)O)cc3c2OCOC3)cc1C,"P4HB (Homo sapiens, UniProt P07237)","reductase activity, inhibitor, insulin aggregation",,,64 µM
N#Cc1ccc(N2CCN(C(=O)CCCCCn3c(=S)[nH]c4ccccc4c3=O)CC2)cc1,"Estrogen receptor (ESR1, Homo sapiens, UniProt P03372)","reporter gene, antagonist",HEC-1 cells transfected with ERα,with: estradiol 1 nM,8 µM
Cc1ncsc1-c1ccc(CNC(=O)[C@@H]2C[C@@H](O)CN2C(=O)c2cccc(C#N)c2)cc1,"von Hippel-Lindau disease tumor suppressor, with elongin B, C (VHL, Homo sapiens, UniProt P40337)","binding, fluorescence polarization",,"10% DMSO, with: FAM-HIF1α peptide tracer",12 ± 0.5 µM
CC(=O)Nc1ccc(/C=C/c2c[nH]c3ccc(F)cc23)cc1,"Amyloid-beta precursor protein, amyloid-beta peptide (APP, Homo sapiens, UniProt P05067)","Aβ42 oligomerisation, ELISA",,,8.5 µM
CCc1cc2c(cc1C(C)=NN=C(C)c1cc3c(cc1CC)C(C)(C)CCC3(C)C)C(C)(C)CCC2(C)C,"Bcl-2-related protein A1 (Mus musculus, UniProt Q07440, C113S/P104K)","binding, fluorescence polarization",,with: FITC-Noxa peptide,> 400 µM
CC(C)(C)OC(=O)n1nc(-c2ccc(O)cc2)c2cc(C(F)(F)F)ccc21,"MAP2K4 (Homo sapiens, UniProt P45985)","enzyme activity, ADP-Glo",,with: p38α substrate,> 20 µM
COc1ccc2[nH]c3c(C)c4cc[n+](C)cc4c(C)c3c2c1,"Toll-like receptor 3 (Homo sapiens, UniProt O15455)","reporter gene, SEAP reporter",HEK-Blue hTLR3,with: poly(I:C),14.3 ± 3.29 µM
COC(=O)/C(=C/c1c[nH]c2ccc(C#N)cc12)c1ccc(F)cc1,"IDO1 (Homo sapiens, UniProt P14902)","enzyme activity, inhibitor",,,> 50 µM
C[C@H](O)c1c(Cl)cncc1-c1cnc2c(c1)CCCN2C(N)=O,"Cyclin-dependent kinase 8, with cyclin C (CDK8, Homo sapiens, UniProt P49336)","binding, LanthaScreen Eu kinase binding",,,0.91 µM
O=C(O)c1cc(C(=O)N2CCC[C@H]2C(=O)O)cc([C@H]2CCN[C@@H]2C(=O)O)c1,AMPA receptor (rat),"binding, radioligand binding",rat cortical synaptosomes,with: [3H]AMPA,10 to 50 µM

# Repeated from above:
SMILES,target,test,system,conditions,IC50
CCc1cc2c(cc1C(C)=NN=C(C)c1cc3c(cc1CC)C(C)(C)CCC3(C)C)C(C)(C)CCC2(C)C,"Bcl-2-related protein A1 (Mus musculus, UniProt Q07440, C113S/P104K)","binding, fluorescence polarization",,with: FITC-Noxa peptide,> 400 µM
Cc1ncsc1-c1ccc(CNC(=O)[C@@H]2C[C@@H](O)CN2C(=O)c2cccc(C#N)c2)cc1,"von Hippel-Lindau disease tumor suppressor, with elongin B, C (VHL, Homo sapiens, UniProt P40337)","binding, fluorescence polarization",,"10% DMSO, with: FAM-HIF1α peptide tracer",12 ± 0.5 µM
